Measurements collected from several papers.
A part holds a random share of what one study measured. Positions count from the first letter of the parent shown.

Sample 1
Target: RING finger protein unkempt homolog, zinc fingers 1-6, GST-SBP tag (UNK, Homo sapiens, UniProt Q9C0B0, residues 30-357)
Method: RNA Bind-n-Seq
Form: RNA
Matrix: in vitro
Tested at: not given
Setting: RNA with constant flanks, human-mouse chimeric sites, ends assumed
Relative to: input RNA pool
Reading: higher = stronger binding
All sequences stand within: GGGAGUUCUACAGUCCGACGAUC … CAACAGAGGAUUGAGCAUCA
Residues (chain): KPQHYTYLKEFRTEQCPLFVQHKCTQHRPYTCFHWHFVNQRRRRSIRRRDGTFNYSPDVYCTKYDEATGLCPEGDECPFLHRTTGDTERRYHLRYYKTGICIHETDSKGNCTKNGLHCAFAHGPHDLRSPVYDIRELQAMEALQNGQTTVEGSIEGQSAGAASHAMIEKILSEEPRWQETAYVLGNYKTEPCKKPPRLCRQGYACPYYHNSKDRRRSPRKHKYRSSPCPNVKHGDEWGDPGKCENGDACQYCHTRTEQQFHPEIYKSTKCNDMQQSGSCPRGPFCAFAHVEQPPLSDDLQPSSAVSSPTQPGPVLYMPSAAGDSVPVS
Oligonucleotide | bound/input enrichment
UAUAUCACCAAUGUUCUACAAAAUCCUGACUUGGCUCUGAGAAUGGCUGUACGUAAUAACUUAGCUGGUGCUGAAGAACUCUUUGCCCGGAAAUUUAAUGCUCUCUUCGCCCAGGGAAAC | 0.529 ratio
AAAGAACUACUGAGGCAAGGCAGCAAAUUUAGGAGAGACAUUUCAACAAUAUUGAUAGAGUUAGGAUUCCAAAUUAAAAAGAAAACUAAGACAUUAUAUAUCAACAAAGCCAAUGUGUGG | 9.31 ratio
GUUGCCAGCUUCCGGUUCCGUUGGGCUCGGUUCUCUCAGUGCUACGUGUCCCUGGCACUCUCAAUCCGCCAUCCAACAAACAUGGAUCAGGUAAUGCAGUUUGUGGAGCCCAGCCGGCAG | 0.092 ratio
GUAGCUGGGACUACAGAAAUGCUGGUAAUUUCAGUCACUUGCUGAUGACUUCUGAUGUCCCAGCAAAUAAUGCCACAGUUGACUGCUGAGAAGAUACACUCGCAAGGCCACGUCUAAGGU | 0.112 ratio
GCGAACAGGACUACAGAAGAAUGCUGAAUUUCAGUCACUUGCUGAUGACUUCUGAUGUCCCAGCAAAUGUUGGCAUUGUUGACUGCUGAGAAGAUACUUCUGAGGACCCACGUCUAAGGU | 0.0876 ratio
CAGCCUCAGAGCCCAGACUUCCUGGAUAUUACCAACCCUAAAGCGGUAUUAGAAAACGCAUUGAGAAACUUCGCCUGUCUGACGACUGGAGAUGUGAUUGCUAUCAACUAUAAUGAAAAG | 0.457 ratio
UAAGUUAUUUUGUACAGCUUUGUAAAUUCUUAACAUUUUUAUAUUGCACAUUUUAUGUUGUUUGGGUAAUUUGGUUCAUUAAGUACAAAACCAAAUAAAUGAACAUCUUUUUCAGUAAUU | 0.791 ratio

Sample 2
Target: CCNE2, cyclin fold, Cln2 fusion (human)
Method: yeast growth competition, sequencing
Matrix: yeast
Setting: weak parent motif
Relative to: not given
Reading: higher = stronger binding
Starting sequence: PKMYT1 docking peptide (human); SFEPRNLLSLFED
Variant | normalised enrichment score
S9G | -0.145
L7C | 0.144
L8D | -0.83
N6Y | -0.067
L10W | 0.604
D13K | 0.236
F11L | -0.0808
L7D | -0.0587
E3D | -0.149
E3V | 0.916

Sample 3
Target: RNA binding protein fox-1 homolog 2, RRM domain, GST-SBP tag (RBFOX2, Homo sapiens, UniProt O43251-10, residues 100-194)
Method: RNA Bind-n-Seq
Form: RNA
Matrix: in vitro
Tested at: 365 nM
Setting: natural RNA segment, single round, ends assumed
Relative to: no-protein control
Reading: higher = stronger binding
All sequences stand within: GGGAGUUCUACAGUCCGACGAUC … UGGAAUUCUCGGGUGCCAA
Construct (chain): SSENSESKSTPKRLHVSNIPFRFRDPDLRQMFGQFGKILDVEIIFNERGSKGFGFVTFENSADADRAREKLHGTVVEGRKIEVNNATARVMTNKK
Oligonucleotide | RBNS enrichment (R)
GGAAUUGCUUUCACUUCAAGACUUUCCUUCUUUUCACUAAAACUCUAGAAGGUGUUACAAGGGGGAGGGAAGGGGGGCAAAGUCCUUGAACAUUUUCUUUGGCUCGUGCC | 0.646
GGCUUCAGAAGUCAUGUCAGUGUCUCUGUAGACAAACUCCACUGUACAUCUUGGAUUAAUCUUCUGAUUCAUUGUUCAUUUUCUCAAGACUUUUUGUGGAAUUCUCUGAU | 0.469
GGAUUUCUGUGGAACUUGGCAAAUUUUCAGAGCACCUUCACUCACAUAAUGUCAUUUGAACCUCACAAUGUUCUUGGGAUGGAGUCAGUUGUUCAGGGUCCCCGUGUGUG | 0.38
CUAUGCCAACAUCUCCCAUUGGAAACAGGGUUUCUCCUCCUUGCUUCAUCAGAGCCAACCUUUGAUAUUCUUGGAGGGGACAGGAGGUGGGAACACAGAGGGAGUAGCCU | 0.3
GGUAAUGAGCCCCAGCAACUGUCCUCAGCCCCUCUUCCCCUCAUUUGUUCCUUCUGUCCUUCCAACACAGAGACUGUUAGAGAUGAAAGUUUGGACGGUACUAAAGUCAC | 0.664
ACUCCAGGGAAACCUGAAAGCAAGAAGUUAAUGGACUGUUUAUUGUAACUUGAUCCUCCCGAGCUGUGAGCGCAGUCUGAGGUGUGAGGACACGGCCUCCUGUUGGAGUC | 0.251
UCCAUCUCAGGAGGCACGGAGGGAAAAGAUGUAUGUAUUGAAGUUUUUUUUUUUUUUUAAAUGUGACUUUUUUUAAAUCAAUGUUCAAACUAAUAAAUAUUUUUUUAUGA | 1.29
CUGCCCCUUUCAGGCCUACAGCCACAUCCCCAAGCCCACCAGGUGUCAGGAUAGUCACAGUGAUACCAGUUCAGACACUACCCCAUAUACACCUGGAACAUUGAGGAUGG | 0.369
UGCACGCAUGUGUGUGUGUGCACGCACUGGGCUGGGCCAAGCGACUGAGGAUUCGCUUGGGAACGGGCAGGUGGUAGUAGGGGCGCCAGCUUGGGCUCUCCUGGCGCCCC | 0.99
UGUGUGUAUGUGCGUGUGCGUGCACAUGUGUGCCUGCGUGUUGGUAUAGGACUUUAAAGCUCCUUUUGGCAUAGGGAAGUCACGAAGGAUUGCUUGACAUCAGGAGACUU | 0.861
AUGGUACAAAUUUAUUAAUAUGAAGAAAUGCAAAAUGUAUUGCUUUUGAUAUUUCUCUUCCGAGAUGAACAAGUAGCAUGUAAUGCAACUGUUUGACAGUUUAACUCAAG | 2.53
GGAGGCCCCCAGGGGUGGUAGAGGCUGGAAGGAAGCCACAUCAGGAGGACGCCACUCCGGCCCUUCACCCUUGCCAAGUGAGCUGCUCACAGUGUGGUCAGGGCUGCGCG | 0.263

Other studies, line by line
Molecule | target | test | test system | conditions | how to read | endpoint | result
PhoQ, residues 284 288 289 292 302 303 SVTLVV | PhoP, residues 12 14 15 18 19 AQALL (Escherichia coli, UniProt P23836) | Sort-seq, item: YFP reporter | E. coli | PhoQ-PhoP variant library, with: 10 µM Mg2+ | relative to: high Mg2+ state, higher = stronger signaling | fold induction | 14.8

Excerpt of the above (other studies, line by line):
Molecule | target | test | test system | conditions | how to read | endpoint | result
PhoQ, residues 284 288 289 292 302 303 SVTLVV | PhoP, residues 12 14 15 18 19 AQALL (Escherichia coli, UniProt P23836) | Sort-seq, item: YFP reporter | E. coli | PhoQ-PhoP variant library, with: 10 µM Mg2+ | relative to: high Mg2+ state, higher = stronger signaling | fold induction | 14.8
